{"data": "Published values pooled from the literature", "ALB": "Albumin (ALB, Homo sapiens, UniProt P02768)", "ABCB1": "ATP-dependent translocase ABCB1 (ABCB1, Homo sapiens, UniProt P08183)", "note": "Lines come from different studies, so protocols differ. “And” joins repeats or separate records; there may be more than shown. ± gives the spread as reported.", "chain of UniProt P11712 (whole entry, looked up)": "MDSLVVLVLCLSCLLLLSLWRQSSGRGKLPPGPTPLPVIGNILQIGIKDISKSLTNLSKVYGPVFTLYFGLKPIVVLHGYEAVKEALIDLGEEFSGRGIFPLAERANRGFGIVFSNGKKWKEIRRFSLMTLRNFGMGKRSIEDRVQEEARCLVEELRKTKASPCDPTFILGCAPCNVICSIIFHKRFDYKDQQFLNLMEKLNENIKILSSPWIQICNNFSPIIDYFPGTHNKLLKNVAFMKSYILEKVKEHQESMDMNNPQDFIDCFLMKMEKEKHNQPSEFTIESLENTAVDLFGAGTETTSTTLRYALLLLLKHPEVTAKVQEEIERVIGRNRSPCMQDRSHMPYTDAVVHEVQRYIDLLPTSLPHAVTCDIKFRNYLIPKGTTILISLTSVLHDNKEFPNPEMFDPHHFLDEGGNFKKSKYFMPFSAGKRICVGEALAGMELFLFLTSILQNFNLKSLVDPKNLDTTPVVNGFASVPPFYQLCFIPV", "chain of UniProt P08183 (whole entry, looked up)": "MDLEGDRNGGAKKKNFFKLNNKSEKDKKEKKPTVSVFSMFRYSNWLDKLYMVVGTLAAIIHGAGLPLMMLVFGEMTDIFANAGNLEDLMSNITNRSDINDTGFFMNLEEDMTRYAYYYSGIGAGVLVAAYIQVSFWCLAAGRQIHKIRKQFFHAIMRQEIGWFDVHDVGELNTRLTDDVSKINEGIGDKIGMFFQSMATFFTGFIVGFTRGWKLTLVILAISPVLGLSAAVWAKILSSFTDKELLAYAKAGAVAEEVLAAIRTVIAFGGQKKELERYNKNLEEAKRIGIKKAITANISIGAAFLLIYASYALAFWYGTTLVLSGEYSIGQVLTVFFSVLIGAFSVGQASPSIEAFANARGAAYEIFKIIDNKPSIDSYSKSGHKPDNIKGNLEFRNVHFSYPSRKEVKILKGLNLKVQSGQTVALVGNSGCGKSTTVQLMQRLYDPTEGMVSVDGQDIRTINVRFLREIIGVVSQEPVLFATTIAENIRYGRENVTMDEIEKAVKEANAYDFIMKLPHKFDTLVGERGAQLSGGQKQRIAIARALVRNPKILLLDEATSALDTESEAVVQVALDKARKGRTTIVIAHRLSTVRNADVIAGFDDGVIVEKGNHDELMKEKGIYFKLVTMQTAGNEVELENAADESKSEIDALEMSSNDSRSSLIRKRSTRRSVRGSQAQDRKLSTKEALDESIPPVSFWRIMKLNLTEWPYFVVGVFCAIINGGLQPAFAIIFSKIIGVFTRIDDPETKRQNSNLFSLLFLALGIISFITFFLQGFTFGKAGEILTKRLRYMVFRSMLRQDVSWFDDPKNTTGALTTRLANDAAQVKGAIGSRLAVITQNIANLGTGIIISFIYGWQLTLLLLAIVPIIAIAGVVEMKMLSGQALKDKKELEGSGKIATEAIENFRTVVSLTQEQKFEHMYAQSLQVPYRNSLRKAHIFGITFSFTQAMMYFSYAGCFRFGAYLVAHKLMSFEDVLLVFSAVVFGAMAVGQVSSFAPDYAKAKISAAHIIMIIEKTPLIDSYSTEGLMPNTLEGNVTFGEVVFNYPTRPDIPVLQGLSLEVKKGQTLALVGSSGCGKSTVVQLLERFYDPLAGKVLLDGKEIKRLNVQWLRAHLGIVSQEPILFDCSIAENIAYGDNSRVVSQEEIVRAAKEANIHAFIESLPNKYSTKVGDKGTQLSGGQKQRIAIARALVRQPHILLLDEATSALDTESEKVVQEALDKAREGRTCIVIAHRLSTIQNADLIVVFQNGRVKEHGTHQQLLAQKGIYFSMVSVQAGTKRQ"}
{"Compound": "O=C(Oc1cc(OC(=O)c2cc(O)c(O)c(O)c2)c2ccccc2c1)c1cc(O)c(O)c(O)c1", "tested on": "HSV-2 strain 333", "test": "viral DNA replication, qPCR", "system": "BEAS-2B", "how to read": "baseline: CC50 over IC50", "endpoint": "therapeutic index", "value": 37}
{"Compound": "CCN(CC)CC#CCNc1ccnc2cc(Cl)ccc12", "tested on": "Salmonella typhimurium", "test": "mini-Ames test", "system": "TA98", "conditions": "500.0 µg/well, without S9", "endpoint": "revertants per well", "value": 10}
{"Compound": "CN1CCN(c2ccc3[nH]c(-c4ccc5[nH]c(-c6ccc(OCCCCNC(=O)c7cccc8c7C(=O)OC87c8ccc(N(C)C)cc8C(C)(C)c8cc(N(C)C)ccc87)cc6)nc5c4)nc3c2)CC1", "tested on": "ALB", "test": "binding, fluorescence titration", "system": "PBS", "conditions": "1 h", "endpoint": "Kd", "value": "57 ± 7 µM"}
{"Compound": "C=CC(=O)Nc1cc(Nc2nccc(-c3cn(C)c4ccccc34)n2)c(OCC(F)(F)F)nc1N(C)CCN(C)C", "tested on": "CYP1A2 human", "test": "inducer", "system": "hepatocytes lot HC3-31", "conditions": "10 µM", "how to read": "baseline: DMSO", "endpoint": "relative enzyme activity", "value": 9.29}
{"Compound": "O=C(Nc1cnccc1-c1ccc([18F])cc1)c1ccnc(NC(=O)C2CC2)c1", "system": "FVB/NJ mouse, both sexes, brain", "conditions": "intravenous, 3 min post-injection, added: P-gp inhibitor tariquidar 15 mg/kg iv", "endpoint": "SUV", "value": "0.93 ± 0.36"}
{"Compound": "COC(=O)Nc1nc2cc(C(O)c3ccc(F)cc3)ccc2[nH]1 (stereo not shown)", "tested on": "Salmonella typhimurium", "test": "Ames preincubation test", "system": "TA98", "conditions": "218.8 µg/plate, without S9", "endpoint": "revertants", "value": "22 revertants/plate"}
{"Compound": "CC(C)OCCOCc1ccc(OCC(O)CN(N=O)C(C)C)cc1 (stereo not shown)", "tested on": "Salmonella typhimurium", "test": "Ames test", "system": "TA1535", "conditions": "5000 µg/plate, 30 % hamster S9", "how to read": "baseline: solvent control", "endpoint": "revertant fold increase", "value": "16.6 fold"}
{"Compound": "CC(C)Cc1ccc(C(C)C(=O)N[C@@H](CCCCNC(=O)CCOCCOCCOCCOCCOCCOCCNC(=O)CN2CCN(CC(=O)[O-])CCN(CC(=O)[O-])CCN(CC(=O)[O-])CC2)C(=O)Nc2cccc3c(C(=O)NCC(=O)N4CC(F)(F)C[C@H]4C#N)ccnc23)cc1.[177Lu+3] (stereo partly shown)", "tested on": "U-87 MG tumour model", "system": "host not given, blood", "conditions": "24 h, tumour-bearing", "endpoint": "tracer uptake", "value": "0.62 %ID/g"}
{"Compound": "CCc1c(-c2ccc3[nH]ncc3c2)cnc(N)c1-c1ccc(O)cc1", "tested on": "CHP-212 resistant sublines (heterozygous USP7 V517F)", "test": "cell viability", "conditions": "0.7812 µM", "endpoint": "viability", "value": "108% and 107%"}
{"Compound": "CNC(=O)C1CCCN(C(=O)C2CC3CCC2N3C(=O)[C@@H]2C[C@@H](O)CN2C(=O)NCc2cccc(Cl)c2F)C1 (mixture of isomers)", "tested on": "Cytochrome P450 2C9 (CYP2C9, Homo sapiens, UniProt P11712)", "test": "preincubation with NADPH", "system": "human", "conditions": "0.206 µM", "how to read": "baseline: negative control", "endpoint": "remaining activity", "value": "99.4% and 101% and 122%"}
{"Compound": "N#C[C@@H]1CC(F)(F)CN1C(=O)CNC(=O)c1ccnc2c(NC(=O)[C@@H](N)CCCCNC(=O)CCOCCOCCOCCOCCOCCOCCNC(=O)CN3CCN(CC(=O)[O-])CCN(CC(=O)[O-])CCN(CC(=O)[O-])CC3)cccc12.[177Lu+3]", "tested on": "U-87 MG tumour model", "system": "host not given, pancreas", "conditions": "48 h, tumour-bearing", "endpoint": "tracer uptake", "value": "0.05 %ID/g"}
{"Compound": "O=C1C2CC3CC1CC(C(=O)N1CCN(c4ccc([N+](=O)[O-])c5ncccc45)CC1)(C3)C2", "tested on": "Salmonella typhimurium", "test": "Ames test", "system": "TA1535", "conditions": "0.02 µg/well, without S9 activation", "endpoint": "revertant colony count", "value": "7 colonies/well"}
{"Compound": "Cc1nc(Nc2ncc(C(=O)Nc3c(C)cccc3Cl)s2)cc(N2CCN(C(=O)CCOCCNC(=O)CN)CC2)n1", "tested on": "K562", "test": "cell growth or viability, CCK-8", "conditions": "10 nM", "endpoint": "viability", "value": "59% and 62%"}
{"Compound": "N#C[C@@H]1CC(F)(F)CN1C(=O)CNC(=O)c1ccnc2c(NC(=O)[C@H](CCCCNC(=O)CCOCCOCCOCCOCCOCCOCCNC(=O)CN3CCN(CC(=O)[O-])CCN(CC(=O)[O-])CCN(CC(=O)[O-])CC3)NC(=O)CCCc3ccc(I)cc3)cccc12.[177Lu+3]", "tested on": "U-87 MG tumour model", "system": "host not given, stomach", "conditions": "1 h, tumour-bearing", "endpoint": "tracer uptake", "value": "4.72 %ID/g"}
{"Compound": "C=C(NC(=O)c1csc(-c2nc3c(cc2O)-c2nc(cs2)C(=O)NC(C(C)O)C(=O)NC(=C(C)OC)c2nc(cs2)C(=O)NC2c4nc(cs4)C(=O)NC(COC(=O)c4c5c6c(cccc6n4O)COC(=O)C(OC4CC(C)(O)C(N(C)C)C(C)O4)C2OC5)c2nc-3cs2)n1)C(N)=O (stereo not shown)", "system": "male cynomolgus monkey, plasma", "conditions": "intravenous, 9 mg/kg, single dose, infusion", "endpoint": "Cmax", "value": "31800 ng/mL"}
{"Compound": "CNc1nc(N)nc2c1ncn2[C@@H]1O[C@H](CO[P@](=O)(O)N[C@@H](C)C(=O)O)[C@@H](O)[C@@]1(C)F", "tested on": "ABCB1", "test": "bidirectional transport", "system": "LLC-PK1, human MDR1, transfected with", "conditions": "10 µM", "endpoint": "Papp A to B", "value": "5.62 ± 0.51 ×10⁻⁶ cm/s"}
{"Compound": "COc1cccc(OC)c1-c1cc(C(=O)NC2(C(=O)O)C3CC4CC(C3)CC2C4)nn1-c1ccc(C(=O)N(C)CCCN(C)CCCN(C)C(=O)[C@H](CCCCNC(=O)[C@H](CC(C)C)NC(=O)C2OC2C(=O)O)NC(=O)CN2CCN(CC(=O)[O-])CCN(CC(=O)[O-])CCN(CC(=O)[O-])CC2)cc1C(C)C.[177Lu+3] (mixture of isomers)", "tested on": "HT-29 tumour model", "system": "host not given, stomach", "conditions": "7 days, tumour-bearing", "endpoint": "tracer uptake", "value": "0.072 %ID/g"}
{"Compound": "Cc1nc(N)nc2c1C(=O)N[C@@H](c1ccc(F)cc1-c1cccc(O[11CH3])n1)C2", "test": "radioligand, ex vivo biodistribution", "system": "healthy mouse, white blood cells", "conditions": "60 min p.i.", "endpoint": "SUV", "value": "4.7 ± 1.6"}
{"Compound": "N#C[C@@H]1CCCN1C(=O)CNC(=O)c1ccnc2ccc(OCCCN3CCN(C(=O)CCc4ccc5c(c4)CN4CCN(Cc6cc(CCC(=O)O)ccc6O)CC(=O)[O][Al-]([18F])([O]C(=O)C4)[O]5)CC3)cc12 (stereo partly shown)", "tested on": "U-87 MG tumour model", "system": "host not given, blood", "conditions": "2 h, tumour-bearing", "endpoint": "tracer uptake", "value": "1.14 %ID/g"}
{"Compound": "C[C@@]1(F)[C@H](O)[C@@H](CO)O[C@H]1n1cnc2c(=O)[nH]c(N)nc21", "tested on": "ABCB1", "test": "bidirectional transport", "system": "LLC-PK1, human MDR1, transfected with", "conditions": "10 µM", "endpoint": "Papp B to A", "value": "12.9 ± 0.6 ×10⁻⁶ cm/s"}
{"Compound": "CN1CCN(c2ccc3[nH]c(-c4ccc5[nH]c(-c6ccc(OCCCCNC(=O)c7ccc8c(c7)C7(OC8=O)c8ccc(N(C)C)cc8C(C)(C)c8cc(N(C)C)ccc87)cc6)nc5c4)nc3c2)CC1", "tested on": "ALB", "system": "PBS", "conditions": "1 µM, 1 h, added: 25 mg/mL albumin", "endpoint": "fluorescence quantum yield", "value": "0.236 ± 0.009"}
{"Compound": "COc1cccc(OC)c1-c1cc(C(=O)NC2(C(=O)O)C3CC4CC(C3)CC2C4)nn1-c1ccc(C(=O)N(C)CCOCCOCCN(C)C(=O)[C@H](CCCCNC(=O)[C@H](CC(C)C)NC(=O)C2OC2C(=O)O)NC(=O)CN2CCN(CC(=O)[O-])CCN(CC(=O)[O-])CCN(CC(=O)[O-])CC2)cc1C(C)C.[177Lu+3] (mixture of isomers)", "tested on": "HT-29 tumour model", "system": "host not given, bone", "conditions": "24 h, tumour-bearing", "endpoint": "tracer uptake", "value": "0.8 %ID/g"}
{"note": "Some of these lines once more:"}
{"Compound": "CN1CCN(c2ccc3[nH]c(-c4ccc5[nH]c(-c6ccc(OCCCCNC(=O)c7cccc8c7C(=O)OC87c8ccc(N(C)C)cc8C(C)(C)c8cc(N(C)C)ccc87)cc6)nc5c4)nc3c2)CC1", "tested on": "ALB", "test": "binding, fluorescence titration", "system": "PBS", "conditions": "1 h", "endpoint": "Kd", "value": "57 ± 7 µM"}
